Assay results pooled from the literature.
NR3C1: Glucocorticoid receptor (NR3C1, Homo sapiens, UniProt P04150)

Protein sequences, listed by entry. Tags and fused reporters are not part of them.
UniProt P04150, whole entry: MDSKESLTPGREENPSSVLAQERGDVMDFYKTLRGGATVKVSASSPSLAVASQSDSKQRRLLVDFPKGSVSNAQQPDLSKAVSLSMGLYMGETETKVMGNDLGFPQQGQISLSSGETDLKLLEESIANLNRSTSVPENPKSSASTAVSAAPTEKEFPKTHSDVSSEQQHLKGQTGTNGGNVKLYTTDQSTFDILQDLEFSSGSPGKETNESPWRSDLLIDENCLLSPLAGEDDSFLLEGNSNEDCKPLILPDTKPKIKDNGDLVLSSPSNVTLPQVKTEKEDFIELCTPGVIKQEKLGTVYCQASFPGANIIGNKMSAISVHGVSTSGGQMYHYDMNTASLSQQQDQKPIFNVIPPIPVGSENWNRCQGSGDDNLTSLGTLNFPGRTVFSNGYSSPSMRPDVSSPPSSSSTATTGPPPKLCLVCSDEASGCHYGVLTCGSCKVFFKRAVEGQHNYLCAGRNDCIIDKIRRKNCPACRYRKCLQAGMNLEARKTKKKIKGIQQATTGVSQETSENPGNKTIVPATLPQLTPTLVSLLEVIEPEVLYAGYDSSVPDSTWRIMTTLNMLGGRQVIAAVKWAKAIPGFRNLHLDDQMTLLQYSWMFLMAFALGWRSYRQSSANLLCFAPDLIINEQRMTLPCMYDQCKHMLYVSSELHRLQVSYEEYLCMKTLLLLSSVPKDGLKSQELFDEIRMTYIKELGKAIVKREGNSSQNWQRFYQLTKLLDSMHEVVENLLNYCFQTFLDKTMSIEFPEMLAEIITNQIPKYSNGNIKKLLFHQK
UniProt P08631, whole entry: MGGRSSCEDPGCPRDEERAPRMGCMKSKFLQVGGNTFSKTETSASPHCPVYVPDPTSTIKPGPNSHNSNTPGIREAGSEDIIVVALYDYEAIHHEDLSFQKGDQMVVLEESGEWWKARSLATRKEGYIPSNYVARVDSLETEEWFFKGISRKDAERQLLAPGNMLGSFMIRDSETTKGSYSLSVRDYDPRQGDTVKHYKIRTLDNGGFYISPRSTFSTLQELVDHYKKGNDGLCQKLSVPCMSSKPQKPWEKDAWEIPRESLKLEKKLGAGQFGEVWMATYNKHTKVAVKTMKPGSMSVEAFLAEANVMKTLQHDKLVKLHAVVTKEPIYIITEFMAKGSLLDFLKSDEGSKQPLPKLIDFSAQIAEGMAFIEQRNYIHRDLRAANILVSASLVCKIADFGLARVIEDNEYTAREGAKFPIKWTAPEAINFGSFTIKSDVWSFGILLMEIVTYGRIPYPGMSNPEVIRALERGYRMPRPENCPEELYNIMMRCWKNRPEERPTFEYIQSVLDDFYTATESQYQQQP
UniProt P29350, whole entry: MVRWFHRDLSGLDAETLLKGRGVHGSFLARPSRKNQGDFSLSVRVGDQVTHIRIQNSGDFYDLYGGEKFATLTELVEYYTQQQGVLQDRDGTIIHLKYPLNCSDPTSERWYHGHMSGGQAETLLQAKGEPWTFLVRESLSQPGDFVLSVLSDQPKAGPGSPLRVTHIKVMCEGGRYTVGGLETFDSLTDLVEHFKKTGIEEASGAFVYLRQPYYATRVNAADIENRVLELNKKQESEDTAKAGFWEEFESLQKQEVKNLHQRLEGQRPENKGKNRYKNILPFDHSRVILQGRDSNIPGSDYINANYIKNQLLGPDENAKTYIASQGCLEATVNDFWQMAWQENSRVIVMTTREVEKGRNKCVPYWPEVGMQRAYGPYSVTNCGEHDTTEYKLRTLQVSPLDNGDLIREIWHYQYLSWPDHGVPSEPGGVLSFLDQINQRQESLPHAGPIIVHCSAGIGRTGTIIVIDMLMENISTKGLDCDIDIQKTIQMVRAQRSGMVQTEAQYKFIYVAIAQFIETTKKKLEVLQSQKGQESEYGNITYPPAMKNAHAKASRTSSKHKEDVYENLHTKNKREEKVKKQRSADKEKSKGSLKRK

`CC1CCCN(C(=O)CON=C2C=CCCC=CCCOC(=O)c3c(O)cc(O)cc3C2)C1` (stereo not drawn) has an EC50 of ≤ 100 nM (SK-BR-3; Her-2 depletion, refers to: Her-2; overnight).
For `COc1ccc2[nH]c(CNc3nc(N4CCN(C)CC4)nc4c3ncn4-c3ccoc3)nc2c1`, the EC50 was 89 nM (A-375; cell viability, MTT).
`CCN1CCN(Cc2ccc(Nc3ncc4c(n3)N(C)c3c(F)cccc3C(=O)N4C)cc2C(F)(F)F)CC1` has an EC50 of 449 nM (HCT-116; cell growth, CellTiter-Glo; 96 h).
The EC50 of `Clc1ccc2[nH]c(CNc3nc(N4CCNCC4)nc4c3ncn4-c3ccoc3)nc2c1` is reported as 2 nM (A-375; cell viability, MTT).
`O=C(Nc1cccnn1)N1CC(Oc2ccc(-c3ccccc3F)cn2)C1` has an Emax of ~5 ng/mL (Emax model of Ctrough concentration-response, refers to: plasma PEA; human, plasma; oral, repeated daily dosing).
The EC50 of `CN1C(=O)c2ccccc2N(C)c2nc(Nc3ccc(N4CCC(O)CC4)cc3)ncc21` is reported as 9.5 nM (HCT-116; cell growth, CellTiter-Glo; 96 h).
For `CCN1CCN(Cc2ccc(NC(=O)c3ccc(C)c(Oc4ncnc5cc(OC)c(OC)cc45)c3)cc2C(F)(F)F)CC1`, “residual probe binding” read 0.3% (Tyrosine-protein kinase HCK (HCK, Homo sapiens, UniProt P08631); KINOMEscan competition binding; 1.0 µM).
For `CC1C=CCCCOC(=O)c2c(O)cc(O)c(Cl)c2CC(=NOCC(=O)N2CCCCC2)C=CC1` (stereo not drawn), the EC50 was > 10000 nM (SK-BR-3; Her-2 depletion, refers to: Her-2; overnight).
`CC1=C(CC[C@H](C)CO)O[C@@H]2C[C@@H]3[C@H]4CC[C@H]5C[C@@H](O)CC[C@]5(C)[C@@H]4CC(=O)[C@@]3(C)[C@@H]12` gave an EC50 of > 9000 nM (NR3C1; nuclear translocation, agonist, enzyme fragment complementation).
With `CC1/C=C/CCCOC(=O)c2c(O)cc(O)cc2CC(=NOCC(=O)N2CCCCC2)/C=C/C1` (racemic) the EC50 was ≤ 5000 nM (SK-BR-3; Her-2 depletion, refers to: Her-2; overnight).
The EC50 of `CC(=O)O[C@H]1CC[C@@]2(C)[C@@H](CC[C@H]3[C@H]2CC(=O)[C@@]2(C)[C@@H]3C[C@H]3CC(C)=CC(=O)[C@H]32)C1` is reported as > 9000 nM (NR3C1; nuclear translocation, agonist, enzyme fragment complementation).
Under inhibition, `COc1cc(CC(=O)NCC(NC(=O)C(CCCNC(=O)c2cccc(I)c2)NC(=O)C(Cc2ccc(C(F)(F)P(=O)(O)O)cc2)NC(=O)c2ccc(C)c(Br)c2)C(N)=O)ccc1O` (stereo not drawn) is recorded as “no inhibition” (Tyrosine-protein phosphatase non-receptor type 6 (PTPN6, Homo sapiens, UniProt P29350); enzyme activity; 10 µM).
`CCN1CCN(Cc2ccc(Nc3ncc4c(n3)N(C)c3c(C)cccc3C(=O)N4C)cc2C(F)(F)F)CC1` gave an EC50 of > 10000 nM (HeLa S3; cell growth, CellTiter-Glo; 96 h).
`O=C1CCC(N2C(=O)c3cccc(NCCOCCOCCOCCN4CCN(c5ccc(-c6ccc7c(c6)C(=O)N(C(C(=O)Nc6nccs6)c6ccccc6)C7)cn5)CC4)c3C2=O)C(=O)N1` (stereo not drawn) gave an EC50 of 96 nM (Ba/F3 EGFR L858R/T790M; cell proliferation).
The EC50 of `O=C(/C=C/c1nc2ccccc2[nH]1)c1c(-c2ccccc2)c2cc(Cl)ccc2[nH]c1=O` is reported as 11600 nM (SK-MEL-28; cell viability, CellTiter-Blue; 72 h).
